Assay results gathered from unrelated publications.
Every numbered part comes from another study and shows a few of its results, in no order. Values joined by “and” are separate records of one study, mostly repeats; a detail may differ.
Chain of UniProt Q9UIK4 (whole entry, looked up): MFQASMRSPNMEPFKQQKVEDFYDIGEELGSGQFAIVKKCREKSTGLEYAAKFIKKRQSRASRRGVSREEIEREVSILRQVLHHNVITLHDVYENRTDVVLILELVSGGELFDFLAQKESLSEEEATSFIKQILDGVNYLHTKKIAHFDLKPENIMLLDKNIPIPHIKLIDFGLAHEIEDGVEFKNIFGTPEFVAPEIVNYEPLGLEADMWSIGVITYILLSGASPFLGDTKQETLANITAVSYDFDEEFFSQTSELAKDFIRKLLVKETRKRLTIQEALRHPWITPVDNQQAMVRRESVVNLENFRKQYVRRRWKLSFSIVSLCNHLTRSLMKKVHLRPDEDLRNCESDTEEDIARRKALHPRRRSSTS
Chain of UniProt Q13557 (whole entry, looked up): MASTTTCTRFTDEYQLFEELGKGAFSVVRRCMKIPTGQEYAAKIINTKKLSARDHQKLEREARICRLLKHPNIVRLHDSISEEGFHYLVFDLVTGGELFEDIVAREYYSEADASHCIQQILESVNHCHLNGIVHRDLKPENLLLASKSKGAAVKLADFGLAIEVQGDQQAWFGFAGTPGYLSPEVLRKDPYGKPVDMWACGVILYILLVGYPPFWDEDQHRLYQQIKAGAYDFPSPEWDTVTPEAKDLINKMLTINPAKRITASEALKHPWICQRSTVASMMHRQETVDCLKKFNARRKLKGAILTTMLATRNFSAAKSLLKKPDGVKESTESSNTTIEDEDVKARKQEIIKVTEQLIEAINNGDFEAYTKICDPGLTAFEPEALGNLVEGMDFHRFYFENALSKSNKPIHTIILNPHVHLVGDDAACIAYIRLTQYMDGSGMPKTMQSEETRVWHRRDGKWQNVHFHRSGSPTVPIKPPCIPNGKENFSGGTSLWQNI
Chain of UniProt P41180 (whole entry, looked up): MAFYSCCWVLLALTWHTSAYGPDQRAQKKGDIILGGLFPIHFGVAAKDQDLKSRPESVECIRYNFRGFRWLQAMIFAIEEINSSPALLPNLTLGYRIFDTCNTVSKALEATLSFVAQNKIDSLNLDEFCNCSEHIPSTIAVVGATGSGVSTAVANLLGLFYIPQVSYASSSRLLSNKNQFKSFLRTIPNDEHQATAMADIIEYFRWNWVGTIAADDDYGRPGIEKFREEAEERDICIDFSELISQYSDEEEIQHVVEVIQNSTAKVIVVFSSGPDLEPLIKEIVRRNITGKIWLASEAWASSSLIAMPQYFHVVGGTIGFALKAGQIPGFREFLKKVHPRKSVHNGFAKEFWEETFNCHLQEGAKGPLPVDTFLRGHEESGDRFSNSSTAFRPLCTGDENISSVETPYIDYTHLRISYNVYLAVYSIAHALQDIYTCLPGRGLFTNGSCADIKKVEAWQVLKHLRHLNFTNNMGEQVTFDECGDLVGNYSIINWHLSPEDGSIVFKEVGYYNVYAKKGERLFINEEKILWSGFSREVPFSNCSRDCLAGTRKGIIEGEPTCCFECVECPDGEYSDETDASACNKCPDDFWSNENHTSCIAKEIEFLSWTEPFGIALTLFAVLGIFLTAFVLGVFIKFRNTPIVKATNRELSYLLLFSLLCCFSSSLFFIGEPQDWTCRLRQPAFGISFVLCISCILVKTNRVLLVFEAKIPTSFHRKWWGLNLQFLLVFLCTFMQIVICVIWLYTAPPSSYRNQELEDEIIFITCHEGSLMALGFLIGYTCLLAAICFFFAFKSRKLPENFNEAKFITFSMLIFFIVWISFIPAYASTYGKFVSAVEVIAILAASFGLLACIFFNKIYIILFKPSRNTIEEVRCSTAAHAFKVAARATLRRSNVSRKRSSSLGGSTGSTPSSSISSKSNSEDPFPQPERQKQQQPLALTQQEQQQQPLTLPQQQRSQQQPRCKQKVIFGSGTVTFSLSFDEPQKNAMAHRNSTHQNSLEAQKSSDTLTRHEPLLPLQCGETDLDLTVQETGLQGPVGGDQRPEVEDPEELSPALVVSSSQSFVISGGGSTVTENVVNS
Chain of UniProt Q15760 (whole entry, looked up): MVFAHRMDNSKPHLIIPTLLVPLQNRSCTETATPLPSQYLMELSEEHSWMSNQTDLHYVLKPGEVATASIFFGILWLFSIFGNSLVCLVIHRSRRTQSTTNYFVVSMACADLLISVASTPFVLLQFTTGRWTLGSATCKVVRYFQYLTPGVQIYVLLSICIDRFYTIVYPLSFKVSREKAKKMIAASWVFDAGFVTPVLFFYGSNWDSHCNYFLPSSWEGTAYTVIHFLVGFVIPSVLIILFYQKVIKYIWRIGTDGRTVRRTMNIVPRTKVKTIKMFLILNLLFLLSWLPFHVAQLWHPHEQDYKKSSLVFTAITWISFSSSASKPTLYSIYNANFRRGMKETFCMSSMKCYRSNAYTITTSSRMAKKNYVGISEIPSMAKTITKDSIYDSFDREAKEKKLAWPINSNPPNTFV
Chain of UniProt O95747 (whole entry, looked up): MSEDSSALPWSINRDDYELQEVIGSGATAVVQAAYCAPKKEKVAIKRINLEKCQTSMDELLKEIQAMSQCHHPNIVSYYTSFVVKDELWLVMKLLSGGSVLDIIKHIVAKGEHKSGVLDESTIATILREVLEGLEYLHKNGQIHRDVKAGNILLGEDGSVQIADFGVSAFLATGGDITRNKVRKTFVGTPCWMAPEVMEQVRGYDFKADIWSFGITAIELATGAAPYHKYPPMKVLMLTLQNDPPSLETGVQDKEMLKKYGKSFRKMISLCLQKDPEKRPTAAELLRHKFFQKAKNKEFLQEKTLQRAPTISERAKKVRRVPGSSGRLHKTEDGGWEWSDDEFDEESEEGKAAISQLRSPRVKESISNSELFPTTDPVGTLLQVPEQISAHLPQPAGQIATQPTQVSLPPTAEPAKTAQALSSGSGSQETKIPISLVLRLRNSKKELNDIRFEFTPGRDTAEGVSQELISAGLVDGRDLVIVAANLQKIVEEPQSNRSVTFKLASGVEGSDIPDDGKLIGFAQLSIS
Chain of UniProt Q96LB0 (whole entry, looked up): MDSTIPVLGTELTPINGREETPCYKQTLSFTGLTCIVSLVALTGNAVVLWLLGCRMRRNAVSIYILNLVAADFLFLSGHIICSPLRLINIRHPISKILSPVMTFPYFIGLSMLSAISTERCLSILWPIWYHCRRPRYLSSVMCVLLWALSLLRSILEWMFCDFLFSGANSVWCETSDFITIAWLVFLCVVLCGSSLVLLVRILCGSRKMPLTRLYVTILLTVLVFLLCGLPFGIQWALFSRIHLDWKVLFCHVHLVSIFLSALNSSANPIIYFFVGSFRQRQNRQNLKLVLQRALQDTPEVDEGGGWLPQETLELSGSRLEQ
Chain of UniProt Q9HBW0 (whole entry, looked up): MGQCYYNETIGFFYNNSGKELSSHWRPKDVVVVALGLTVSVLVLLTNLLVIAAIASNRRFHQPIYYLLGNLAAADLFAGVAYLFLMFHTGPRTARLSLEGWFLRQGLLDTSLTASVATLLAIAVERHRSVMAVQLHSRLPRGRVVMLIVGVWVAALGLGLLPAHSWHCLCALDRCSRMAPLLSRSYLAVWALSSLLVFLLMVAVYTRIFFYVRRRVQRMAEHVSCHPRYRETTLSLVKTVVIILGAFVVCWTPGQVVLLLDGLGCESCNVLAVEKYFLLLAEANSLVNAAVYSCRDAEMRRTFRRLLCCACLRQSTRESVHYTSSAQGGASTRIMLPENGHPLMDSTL
Chain of UniProt O95835 (whole entry, looked up): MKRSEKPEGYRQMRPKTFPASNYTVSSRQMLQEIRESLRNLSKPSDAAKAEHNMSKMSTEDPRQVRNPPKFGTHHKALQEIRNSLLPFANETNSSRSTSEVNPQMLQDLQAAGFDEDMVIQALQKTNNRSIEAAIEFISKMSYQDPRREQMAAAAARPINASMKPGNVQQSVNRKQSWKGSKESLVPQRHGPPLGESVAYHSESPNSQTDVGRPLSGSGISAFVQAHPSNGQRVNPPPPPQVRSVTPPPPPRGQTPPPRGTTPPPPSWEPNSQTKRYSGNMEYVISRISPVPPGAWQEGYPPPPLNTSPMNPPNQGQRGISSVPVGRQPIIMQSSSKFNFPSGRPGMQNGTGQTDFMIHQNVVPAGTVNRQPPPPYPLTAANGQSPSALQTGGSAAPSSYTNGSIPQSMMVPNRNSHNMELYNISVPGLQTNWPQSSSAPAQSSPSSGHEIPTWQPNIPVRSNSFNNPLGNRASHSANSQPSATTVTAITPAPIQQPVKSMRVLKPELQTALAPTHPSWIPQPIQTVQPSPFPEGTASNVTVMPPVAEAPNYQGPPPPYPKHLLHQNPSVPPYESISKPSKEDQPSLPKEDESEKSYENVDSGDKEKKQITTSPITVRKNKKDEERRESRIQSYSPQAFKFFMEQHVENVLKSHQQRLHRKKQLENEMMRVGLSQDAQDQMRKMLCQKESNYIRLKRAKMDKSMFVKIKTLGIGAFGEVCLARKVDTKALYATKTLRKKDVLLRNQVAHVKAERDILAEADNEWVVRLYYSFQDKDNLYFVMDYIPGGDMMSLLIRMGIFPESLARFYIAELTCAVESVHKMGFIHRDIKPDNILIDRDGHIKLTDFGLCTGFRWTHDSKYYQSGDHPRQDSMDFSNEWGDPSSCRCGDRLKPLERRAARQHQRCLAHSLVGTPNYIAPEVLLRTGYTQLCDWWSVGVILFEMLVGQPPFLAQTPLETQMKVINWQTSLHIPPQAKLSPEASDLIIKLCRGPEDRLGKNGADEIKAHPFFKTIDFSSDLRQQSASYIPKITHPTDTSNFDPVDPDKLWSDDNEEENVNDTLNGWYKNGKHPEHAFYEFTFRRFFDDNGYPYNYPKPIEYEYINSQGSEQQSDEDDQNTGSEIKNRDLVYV
Chain of UniProt P11802 (whole entry, looked up): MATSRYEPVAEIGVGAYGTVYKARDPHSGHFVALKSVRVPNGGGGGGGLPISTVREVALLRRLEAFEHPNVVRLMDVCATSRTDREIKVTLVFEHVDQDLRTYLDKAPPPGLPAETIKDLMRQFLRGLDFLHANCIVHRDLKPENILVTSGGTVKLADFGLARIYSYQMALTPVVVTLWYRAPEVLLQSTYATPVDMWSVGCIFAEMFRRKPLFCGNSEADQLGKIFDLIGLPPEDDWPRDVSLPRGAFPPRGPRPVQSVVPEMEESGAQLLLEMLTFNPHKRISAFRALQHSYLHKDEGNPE

Block 1
SMILES: CCN(c1nc(N)c(C(=O)N=C(N)N)nc1Cl)C(C)C
Observed: β-arrestin recruitment
Mode: agonist
Technique: PRESTO-Tango
Tested at: 10 µM
Relative to: untreated
Quantity: fold over basal
target = Probable G-protein coupled receptor 19 (GPR19, Homo sapiens, UniProt Q15760); value = 1.46
target = G-protein coupled receptor 55 (GPR55, Homo sapiens, UniProt Q9Y2T6); value = 1.25
target = Mas-related G-protein coupled receptor member X3 (Homo sapiens, UniProt Q96LB0); value = 0.95
target = Prostacyclin receptor (PTGIR, Homo sapiens, UniProt P43119); value = 0.72
target = Adenosine receptor A1 (ADORA1, Homo sapiens, UniProt P30542); value = 0.86
target = Lysophosphatidic acid receptor 2 (LPAR2, Homo sapiens, UniProt Q9HBW0); value = 1.48
target = P2Y purinoceptor 6 (P2RY6, Homo sapiens, UniProt Q15077); value = 1.39
target = Free fatty acid receptor 1 (FFAR1, Homo sapiens, UniProt O14842); value = 1.12 fold
target = Extracellular calcium-sensing receptor (CASR, Homo sapiens, UniProt P41180); value = 0.79
target = Alpha-2C adrenergic receptor (ADRA2C, Homo sapiens, UniProt P18825); value = 2.83
target = Alpha-1B adrenergic receptor (ADRA1B, Homo sapiens, UniProt P35368); value = 1.11

Block 2
Structure (SMILES): Fc1ccc(-c2nc3n(c2-c2ccncc2)CCS3)cc1
Observed: enzyme activity
Mode: inhibitor
Tested at: 0.5 µM
Relative to: control
Quantity: remaining activity
target = Calcium/calmodulin-dependent protein kinase type II subunit delta (CAMK2D, Homo sapiens, UniProt Q13557); value = 97.1%
target = STE20/SPS1-related proline-alanine-rich protein kinase (STK39, Homo sapiens, UniProt Q9UEW8); value = 103%
target = cGMP-dependent protein kinase 1, isoform beta (PRKG1, Homo sapiens, UniProt Q13976); value = 95.9%
target = Cyclin-dependent kinase 4, with cyclin D1 (CDK4, Homo sapiens, UniProt P11802); value = 114%
target = Inhibitor of nuclear factor kappa-B kinase subunit beta (IKBKB, Homo sapiens, UniProt O14920); value = 105%
target = Protein kinase C alpha type (PRKCA, Homo sapiens, UniProt P17252); value = 113%
target = G protein-coupled receptor kinase 3 (GRK3, Homo sapiens, UniProt P35626); value = 95%
target = Tyrosine-protein kinase Lyn, isoform B (LYN, Homo sapiens, UniProt P07948); value = 106%
target = Serine/threonine-protein kinase 10 (STK10, Homo sapiens, UniProt O94804); value = 94.9%
target = Cyclin-dependent kinase 5, with p25 (CDK5, Homo sapiens, UniProt Q00535); value = 98.2%
target = Serine/threonine-protein kinase Nek2 (NEK2, Homo sapiens, UniProt P51955); value = 115%
target = Inhibitor of nuclear factor kappa-B kinase subunit epsilon (IKBKE, Homo sapiens, UniProt Q14164); value = 101%
target = Mitogen-activated protein kinase 9 (MAPK9, Homo sapiens, UniProt P45984); value = 90.6%
target = TGF-beta receptor type-1 (TGFBR1, Homo sapiens, UniProt P36897); value = 106%
target = Calcium/calmodulin-dependent protein kinase kinase 2 (CAMKK2, Homo sapiens, UniProt Q96RR4); value = 99.9%
target = TGF-beta receptor type-2 (TGFBR2, Homo sapiens, UniProt P37173); value = 137%
target = Death-associated protein kinase 2 (DAPK2, Homo sapiens, UniProt Q9UIK4); value = 113%
target = Serine/threonine-protein kinase Chk2 (CHEK2, Homo sapiens, UniProt O96017); value = 97.7%
target = Mitogen-activated protein kinase kinase kinase 3 (MAP3K3, Homo sapiens, UniProt Q99759); value = 100%
target = Serine/threonine-protein kinase OSR1 (OXSR1, Homo sapiens, UniProt O95747); value = 92.5%
target = Serine/threonine-protein kinase STK11 (STK11, Homo sapiens, UniProt Q15831); value = 93.8%
target = Death-associated protein kinase 1 (DAPK1, Homo sapiens, UniProt P53355); value = 100%
target = Protein kinase C beta type, isoform beta-I (PRKCB, Homo sapiens, UniProt P05771); value = 94.2%

Block 3
SMILES: CNC(=O)Nc1ccc2c(c1)[C@@]1(CC2)OC(=O)N(CC(=O)N(Cc2ccc(F)cc2)[C@@H](C)C(F)(F)F)C1=O
Observed: cell-free assay
Technique: competition with immobilised ligand
Tested at: 1 µM
Quantity: remaining binding
target = Serine/threonine-protein kinase B-raf (BRAF, Homo sapiens, UniProt P15056); value = 100%
target = Casein kinase II subunit alpha (CSNK2A1, Homo sapiens, UniProt P68400); value = 60%
target = Protein-tyrosine kinase 2-beta (PTK2B, Homo sapiens, UniProt Q14289); value = 83%
target = LIM domain kinase 1 (LIMK1, Homo sapiens, UniProt P53667); value = 87%
target = Activin receptor type-2B (ACVR2B, Homo sapiens, UniProt Q13705); value = 100%
target = Mitogen-activated protein kinase kinase kinase kinase 3 (MAP4K3, Homo sapiens, UniProt Q8IVH8); value = 89%
target = Serine/threonine-protein kinase LATS1 (LATS1, Homo sapiens, UniProt O95835); value = 59%
target = Angiopoietin-1 receptor (TEK, Homo sapiens, UniProt Q02763); value = 100%
target = Death-associated protein kinase 2 (DAPK2, Homo sapiens, UniProt Q9UIK4); value = 100%
target = Vascular endothelial growth factor receptor 3 (FLT4, Homo sapiens, UniProt P35916); value = 100%
target = Ribosomal protein S6 kinase alpha-5, C-terminal kinase domain (RPS6KA5, Homo sapiens, UniProt O75582); value = 72%
target = Glycogen synthase kinase-3 alpha (GSK3A, Homo sapiens, UniProt P49840); value = 92%
target = Tyrosine-protein kinase receptor TYRO3 (TYRO3, Homo sapiens, UniProt Q06418); value = 70%
target = Mitogen-activated protein kinase 3 (MAPK3, Homo sapiens, UniProt P27361); value = 100%
target = Receptor-interacting serine/threonine-protein kinase 2 (RIPK2, Homo sapiens, UniProt O43353); value = 83%

Block 4
SMILES: CCOc1ccc(Nc2c3c(nc4ccccc24)CCC3)cc1
Organism: Leishmania donovani
Strain: DD8
Quantity: inhibition
assay = parasite killing; system = intracellular amastigotes; conditions = 4 µM, 24 h; value = 30% and 28% and 35%
assay = parasite killing; system = promastigotes; conditions = 0.33 µM, 24 h; value = 7% and 8% and 10%
assay = parasite viability, resazurin; system = promastigotes; conditions = 3.33 µM; value = 64% and 60% and 62%
assay = parasite killing; system = promastigotes; conditions = 1.66 µM, 48 h; value = 40% and 41% and 42%
assay = parasite viability, resazurin; system = promastigotes; conditions = 0.066 µM; value = -8% and -4% and -6% and 2% and -5%
assay = parasite killing; system = promastigotes; conditions = 0.066 µM, 24 h; value = 2% and 4%
assay = parasite killing; system = intracellular amastigotes; conditions = 4 µM, 48 h; value = 84% and 79% and 74%

Repeated from above (block 2):
target = Mitogen-activated protein kinase kinase kinase 3 (MAP3K3, Homo sapiens, UniProt Q99759); value = 100%
target = G protein-coupled receptor kinase 3 (GRK3, Homo sapiens, UniProt P35626); value = 95%
target = TGF-beta receptor type-2 (TGFBR2, Homo sapiens, UniProt P37173); value = 137%
target = Serine/threonine-protein kinase Nek2 (NEK2, Homo sapiens, UniProt P51955); value = 115%
target = Serine/threonine-protein kinase STK11 (STK11, Homo sapiens, UniProt Q15831); value = 93.8%
